Assay results pooled from the literature.
Numbered parts are unrelated; each lists some results of a single study. “And” joins repeats or separate records; there may be more than shown. Positions count from the first letter of the parent shown.

Sample 1
Target: Ras GTPase-activating protein-binding protein 1, full length (G3BP1, Homo sapiens, UniProt Q13283)
Technique: RNA Bind-n-Seq
Form: RNA
Medium: in vitro
Tested at: 200 nM
Setting: whole 134-nt RNA, ends assumed
Together with: 150 mM KCl
Reference: input library
Reading: higher = stronger binding
Endpoint: log2 enrichment
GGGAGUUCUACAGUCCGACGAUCCACAGACAACACGCACCCACACAGACACAGAGGGAAGGGGUUGGGAUGGGGACAGGGUCCACAGCAGGGCGGGGUAGGACCCCAGCCCCUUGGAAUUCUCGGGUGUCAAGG: 1.67
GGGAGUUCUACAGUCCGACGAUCAAGUCCUGUGCUACACAUCGUAUGUACCGAAUCGGGUUUGGGAAAAAGGGAAAGGGAAAGUAUUAUGUUACGCCGUUCGGAUCUGCACUUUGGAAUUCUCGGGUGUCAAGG: 0.38
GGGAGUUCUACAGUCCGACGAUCCCUGUGCUACACAUCGUAUGUACCGAAUCGGGGAAAAAAAGGGGUGGGGAAAAAAAGGGGAAAGUAUUAUGUUACGCCGUUCGGAUCUGCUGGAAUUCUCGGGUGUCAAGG: 0.23
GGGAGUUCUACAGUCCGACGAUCACCAUGCAGGUGGGCAUCUUAGGGAAGUGGGGCAAGGGGGGGAUAGGGAGGGGGGUAACACUUUGGGAACAGGUGGUCCCAGGUCGUUUCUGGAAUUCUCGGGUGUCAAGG: 1.39
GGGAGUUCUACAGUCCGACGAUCCUCAAGUCCUGUGCUACACAUCGUAUGUACCGAAUCGGCCGGGCCGGCCGGGGAAAGUAUUAUGUUACGCCGUUCGGAUCUGCACUUCCAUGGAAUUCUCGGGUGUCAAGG: -0.383
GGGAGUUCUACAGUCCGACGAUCAAGUCCUGUGCUACACAUCGUAUGUACCGAAUCGGGAAAAAGGGUGGGUUUUUGGGAAAGUAUUAUGUUACGCCGUUCGGAUCUGCACUUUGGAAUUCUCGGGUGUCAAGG: 0.251
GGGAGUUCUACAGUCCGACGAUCUAACUUUAGAGGAGGAUCUGAUGGAUAUGGCAGUGGACGUGGAUUUGGGGAUGGCUAUAAUGGGUAUGGAGGAGGACCUGGAGGGGGCAAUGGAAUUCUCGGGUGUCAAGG: 0.256
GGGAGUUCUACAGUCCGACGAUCACCAUGCAGGUGGGCAUCUUUGGGAAGUGGGGCAAGGGGGGGAUAGGGAGGGGGGUAGCACUUUGGGAACAGGUGGUCCCAGGUCGUUUCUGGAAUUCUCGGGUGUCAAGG: 1.19

Sample 2
Target: CRIPT, C-terminal peptide
Technique: DHFR complementation, deep sequencing
Medium: yeast
Setting: single substitutions, model-inferred values
Reference: wild type
Reading: higher = weaker binding
Endpoint: binding free energy change
Parent: ERBIN, PDZ domain 1 (human); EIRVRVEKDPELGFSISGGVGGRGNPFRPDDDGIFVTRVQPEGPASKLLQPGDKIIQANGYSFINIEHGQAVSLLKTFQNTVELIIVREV; partner TKNYKQTSV
V39G: 0.687 kcal/mol
V6M: 0.317 kcal/mol
T77N: -0.0612 kcal/mol
G69Y: 0.0606 kcal/mol
L74G: 0.623 kcal/mol
E1S: 0.115 kcal/mol
V39F: -0.272 kcal/mol
F14A: 0.135 kcal/mol

Sample 3
Species: human
Medium: microsomes or S9
Tested at: 2 µM
Time: 0.5 h
Endpoint: remaining compound
Cc1cc(C)c(C)c(S(=O)(=O)NCCOCCO)c1C: 48.4%
O=C(NC1(c2ccccc2F)CCCC1)c1cccc(N2CCCC2=O)c1: 40.4%
CC(C)(C)C(=O)N1CC(C(=O)NC2CCCC2)C2(CCOCC2)C1 (stereo not drawn): 75.8%

Sample 4
Cell line: mouse MPNST tumor cells
Technique: high-content nuclear imaging
Refers to: cell number
Tested at: 10 µM
Time: 12 h
Setting: mean of 2 replicates
Reference: plate mean
Reading: higher = more cells
Endpoint: nuclei count
CN1[C@@H]2CC[C@H]1C[C@@H](OC(=O)c1c[nH]c3ccccc13)C2: 2.09 z-score
c1ccc(CN(CC2=NCCN2)c2ccccc2)cc1: 0.964 z-score
Cc1cc(/C=C/c2ccc3cc(N(C)C)ccc3[n+]2C)c(C)n1-c1ccccc1: -0.782 z-score and -3.58 z-score

Sample 5
Cell line: HaCaT
Tested at: 100 µM
Time: 18 h
Endpoint: viability
CCC[C@H](NC(=O)[C@@H]1[C@H]2CCC[C@H]2CN1C(=O)[C@@H](NC(=O)[C@@H](NC(=O)c1cnccn1)C1CCCCC1)C(C)(C)C)C(=O)C(=O)NC1CC1: 58.6%
Cc1onc(-c2ccccc2)c1C(=O)N[C@@H]1C(=O)N2[C@@H]1SC(C)(C)[C@@H]2C(=O)O: 108%
CCC[C@@H]1C[C@@H](C(=O)N[C@@H]([C@H]2O[C@H](SC)[C@H](O)[C@@H](O)[C@H]2O)[C@@H](C)O)N(C)C1: 102%

Sample 6
Compound: Cc1nc(N2CC[C@@H](O)C2)ncc1-c1cc(C(F)(F)F)cc2[nH]ncc12
Technique: competition with immobilised ligand
Tested at: 1 µM
Endpoint: remaining binding
Ribosomal protein S6 kinase alpha-4, C-terminal kinase domain (RPS6KA4, Homo sapiens, UniProt O75676); binding: 68%
Serine/threonine-protein kinase N2 (PKN2, Homo sapiens, UniProt Q16513); binding: 72%
Epidermal growth factor receptor (EGFR, Homo sapiens, UniProt P00533, L858R/T790M); cell-free assay: 73%
Cyclin-dependent kinase 18 (CDK18, Homo sapiens, UniProt Q07002); binding: 100%
Myosin light chain kinase 2, skeletal/cardiac muscle (MYLK2, Homo sapiens, UniProt Q9H1R3); binding: 100%
SNF-related serine/threonine-protein kinase (SNRK, Homo sapiens, UniProt Q9NRH2); binding: 96%
MAP kinase-activated protein kinase 5 (MAPKAPK5, Homo sapiens, UniProt Q8IW41); binding: 68%
Mitogen-activated protein kinase kinase kinase 1 (MAP3K1, Homo sapiens, UniProt Q13233); binding: 60%
Leucine-rich repeat serine/threonine-protein kinase 2 (LRRK2, Homo sapiens, UniProt Q5S007, G2019S); binding: 67%
Serine/threonine-protein kinase DCLK2 (DCLK2, Homo sapiens, UniProt Q8N568); binding: 100%
Serine/threonine-protein kinase 25 (STK25, Homo sapiens, UniProt O00506); binding: 100%
LIM domain kinase 1 (LIMK1, Homo sapiens, UniProt P53667); binding: 85%
Mitogen-activated protein kinase 9 (MAPK9, Homo sapiens, UniProt P45984); binding: 61%
Tyrosine-protein kinase ABL1, non-phosphorylated (ABL1, Homo sapiens, UniProt P00519, Q252H); binding: 91%
Discoidin domain-containing receptor 2 (DDR2, Homo sapiens, UniProt Q16832); cell-free assay: 75%
Ribosomal protein S6 kinase beta-1 (RPS6KB1, Homo sapiens, UniProt P23443); binding: 90%
Proto-oncogene tyrosine-protein kinase receptor Ret (RET, Homo sapiens, UniProt P07949, M918T); cell-free assay: 100%
Phosphatidylinositol 3-kinase catalytic subunit type 3 (PIK3C3, Homo sapiens, UniProt Q8NEB9); cell-free assay: 63%
Tyrosine-protein kinase Blk (BLK, Homo sapiens, UniProt P51451); cell-free assay: 100%
Serine/threonine-protein kinase 4 (STK4, Homo sapiens, UniProt Q13043); binding: 83%
Homeodomain-interacting protein kinase 4 (HIPK4, Homo sapiens, UniProt Q8NE63); binding: 82%
Aurora kinase A (AURKA, Homo sapiens, UniProt O14965); cell-free assay: 87%
SRSF protein kinase 3 (SRPK3, Homo sapiens, UniProt Q9UPE1); binding: 84%
Mitogen-activated protein kinase 1 (MAPK1, Homo sapiens, UniProt P28482); binding: 100%
Serine/threonine-protein kinase NLK (NLK, Homo sapiens, UniProt Q9UBE8); binding: 100%

Single results of other studies
CC(CCc1ccccc1)NCC(O)c1ccc(O)c(C(N)=O)c1 (stereo not drawn)  infection rate (Plasmodium berghei; inhibitor; Huh-7, liver stage; 10 µM, 24 h; reference: untreated control): 89.3%
CC(=O)N[C@@H](Cc1c[nH]c2ccccc12)C(=O)N[C@@H](CCC(=O)C=[N+]=[N-])C(=O)OC(C)C  ribulose/xylulose level (UPLC-MS/MS; EL4 tumor, C57BL/6 CES1-/- mice, tumor; subcutaneous, 0.3 mg/kg DON equivalent daily, 5 days; higher = more metabolite): 1.16e+06 a.u. and 1.39e+06 a.u. and 1.54e+06 a.u. and 1.92e+06 a.u. and 1.28e+06 a.u. and 1.38e+06 a.u.
COc1ccc(-c2c(Nc3ccccn3)[nH]c3c(C4=CCCCC4)c(-c4ccccc4)nn3c2=O)cc1  Ctau (human, plasma; oral, 200 mg twice daily, 12 h): 9770 ng/mL and 9650 ng/mL
CC(C)n1cnc(-c2ccc(F)cc2)c1-c1ncc(C(=O)Nc2ccc(N3CCN(C)CC3)cc2)[nH]1  patients with increased interferon-gamma (phase 2a trial; idiopathic pulmonary fibrosis patients; all dose arms pooled, grade 4): 0%
